Assay results pooled from the literature.
Values joined by “and” are separate records of one study, mostly repeats; a detail may differ. ± gives the spread as reported.

Compound | cell line | assay | system | conditions | scale | quantity | result
CC(=C(c1ccc(Cl)cc1)c1ccc(OCCCN(C)C)cc1)c1ccc(Cl)cc1 | NCI-60 tumour cell lines |  |  | 10 µM, mean over cell lines |  | growth inhibition | 16.3%
O=Cc1c(O)ccc2ccccc12 | HUVEC | RNA sequencing, measured: GEM |  | 75 µM, 24 h | relative to: DMSO | log2 fold change | 2.45
Cc1cccc(O[C@H]2CCC[C@@H](C(C)CNCc3ccncc3)C2)c1 (relative stereo) | MC65 Tet-Off cells | cell viability |  | concentration not given, with: rotenone 32 nM pretreatment 30 min |  | protection against Aβ toxicity | decreased
[Cl][Pt-]1([Cl])[S]C(Nc2ccccc2)=N[N+]1=Cc1cccs1 | HEL human lung fibroblasts | altered cell morphology, microscopy |  | confluent cultures |  | cytotoxic concentration | ≥ 20 µM
CC(=O)OC[C@H]1O[C@@H](Sc2sc(C(=O)c3ccc(C)cc3)c(N)c2-c2nc3ccccc3s2)[C@H](OC(C)=O)[C@@H](OC(C)=O)[C@H]1OC(C)=O | MDA-MB-231 breast cancer | SRB |  | 10 µM, 48 h |  | growth percent | 73%
C=C1[C@H](O)CC(=C/C=C2\CCC[C@]3(C)[C@@H]([C@H](C)CCCCO)CC[C@@H]23)C[C@H]1O | HL-60 | cell differentiation, NBT reduction |  |  | relative to: compound over 1α,25-dihydroxyvitamin D3 | EC50 ratio | 10
CC(=O)O[C@H]1CC[C@]2(C)[C@H]3C(=O)C=C4[C@@H]5C[C@@](C)(C(=O)OCc6ccccc6)CC[C@]5(C)CC[C@@]4(C)[C@]3(C)CC[C@H]2C1(C)C | HepG2 | MTT |  | 5 µM, 48 h |  | cell death | ~50%
CC[C@H](C)[C@H](NC(=O)[C@@H](NC(=O)[C@@H](N)C(C)C)C(C)C)C(=O)N[C@@H](C)C(N)=O | PC-12 | Aβ42-induced neurotoxicity, inhibitor, MTT |  | concentration not given, 6 h, 37 °C, peptide to Aβ42 1:1, with: Aβ42 2 µM | relative to: untreated cells | viability | 86.4%
CC(Cc1ccc(Cl)cc1)=C(c1ccc(O)cc1)c1ccc(Cl)cc1 | NCI-60 tumour cell lines |  |  | 10 µM, mean over cell lines |  | growth inhibition | 7%
Nc1c(S(=O)(=O)O)cc(Nc2cccc(S(N)(=O)=O)c2)c2c1C(=O)c1ccccc1C2=O | primary mouse articular chondrocytes | real-time PCR, measured: Phlpp2 |  | 25 µM |  | mRNA level | decreased
C(=C/c1ccccc1)/c1ccccc1 | HL-60 | cell proliferation, CellTiter-Glo |  | 24 h, lowest dose with significant inhibition | relative to: vehicle | lowest effective concentration | 2 µM
Fc1ccc(Nc2nc(NC3CCCCC3)c3ccccc3n2)cc1F | HASM | scratch |  | 1 µM, with: salmeterol 10 µM |  | salmeterol inhibition of migration | increased
CC(=O)Oc1ccccc1C(=O)[O][Pt]([NH2])([NH2])([Cl])([Cl])[O]C(=O)CCCc1ccccc1 | HEK293 and LoVo | cytotoxicity, MTT |  |  | relative to: IC50 HEK293 over IC50 LoVo | selectivity index | 2
CC(=O)N[C@H](C(=O)N[C@H](C(=O)N[C@@H](CCCNC(=N)N)C(=O)N1Cc2ccccc2C[C@H]1C(=O)N[C@@H](Cc1ccccc1)C(N)=O)C1CCCCC1)C(C)C | MBP-specific BC-3 T cells | Bio-Plex multiplex, measured: G-CSF |  | 200 µg/mL, 24 h, with: MBP87-99 antigen |  | cytokine level | 11.8 ± 4.3 pg/mL
C=C(C)[C@@H]1CC[C@]2(C(=O)OCO/N=[N+](\[O-])N3CCCC3)CC[C@]3(C)[C@H](CC[C@@H]4[C@@]5(C)CC[C@H](OC(C)=O)C(C)(C)[C@@H]5CC[C@]43C)[C@@H]12 | B16-F10 | Griess, measured: nitrite and nitrate |  | 10 µM, 12 h |  | NO release | ~80%
O=C(/C=C/c1cccc(S(=O)(=O)NCc2ccc(F)cc2)c1)NO | MOPC-315 | cell growth |  | 24 h | relative to: belinostat | relative potency | 0.695
CC(=O)O[C@H]1C(=O)[C@]2(C)[C@@H](OC(=O)[C@H](N)CSC3CC(=O)N(CCC(=O)Nc4ccc(-c5ccc(/N=N/c6ccc7c(S(=O)(=O)O)cc(S(=O)(=O)O)c(N)c7c6O)c(C)c5)cc4C)C3=O)C[C@H]3OC[C@@]3(OC(C)=O)[C@H]2[C@H](OC(=O)c2ccccc2)[C@]2(O)C[C@H](OC(=O)[C@H](O)[C@@H](NC(=O)c3ccccc3)c3ccccc3)C(C)=C1C2(C)C (stereo partly shown) | U-87 MG | flow cytometry |  | concentration not given, 4 h |  | cellular uptake | ~23.2%
Cc1c(C(=O)NNC(=S)Nc2ccc(Cl)cc2)nnn1Cc1nc2ccccc2[nH]1 | HepG2 | annexin V/PI |  | concentration not given, 24 h |  | late apoptotic cells | 25.1%
COc1cc(CNC(=O)C[C@H](C)CCC=C(C)C)ccc1OCc1cn(-c2ccccc2F)nn1 | OVCAR-3 ovarian cancer cells | SRB |  | 10 µM, 48 h |  | growth percent | 105%
CC(=NN=c1sc(C(=O)c2ccccc2)nn1-c1ccccc1)c1ccc(S(=O)(=O)N2CCC(C)CC2)cc1 | HepG2 | annexin V/PI staining |  | IC50, 72 h |  | apoptotic cells early | 6.38%
O=C(NCCN1C(=O)CCC1=O)[O][Pt]12([O]C(=O)NCCN3C(=O)CCC3=O)([NH][C@@H]3CCCC[C@H]3[NH]1)[O]C(=O)C(=O)[O]2 | CT26 | ICP-MS |  | 10 µM, pre-incubated in FCS | relative to: oxaliplatin over compound | cellular platinum uptake | ~100 fold
COc1cc(CNC(=O)C[C@H](C)CCC=C(C)C)ccc1OCc1cn(-c2ccccc2)nn1 | Malme-3M melanoma cells | SRB |  | 10 µM, 48 h |  | growth percent | 88.8%

Compound | cell line | assay | system | conditions | scale | quantity | result
CC1CCCN(CCCNC(=O)C2=Cc3sc4c(c3CS2)CCCC4)C1 (stereo not shown) | COLO 320 |  |  | 20 µM, 24 h | relative to: vehicle | esterified cholesterol | 2.7 fold
CC(=O)OC[C@H]1O[C@@H](Sc2nc3c4cnn(C(=O)CNc5ccc(C)cc5)c4ncn3n2)[C@H](OC(C)=O)[C@@H](OC(C)=O)[C@@H]1OC(C)=O | HCT cells | annexin V-FITC/PI flow cytometry |  | concentration not given | relative to: untreated control | apoptosis induction | 22 fold
Cc1ccc(-c2cn([C@H]3C[C@H](O)[C@@H](CO)O3)c3ncnc(N)c23)cc1Cl | HEK | cytotoxicity |  |  |  | EC50 | 112 ± 11 µM
[Ru+2].c1ccc(-c2cccc(-c3ccccn3)n2)nc1.c1ccc2nc(-c3ccc4ccccc4n3)ccc2c1.c1cnccn1 | HL-60 |  |  |  | relative to: dark IC50 over light IC50 | phototoxicity index | 1.9
CC(=O)O[C@@H]1CC[C@@]2(C)C(CC[C@]3(C)C2C(=O)C=C2C4[C@@H](C)[C@H](C)CC[C@]4(C)CC[C@]23C)[C@@]1(C)C(=O)OCC(=O)Oc1cc(C)ccc1C(C)C (stereo partly shown) | HepG2 |  |  | 10 µM, acetaminophen-induced injury, with: 10 mM acetaminophen |  | MDA level | 3.9 nmol/mg
COc1cc(CNC(=O)C[C@H](C)CCC=C(C)C)ccc1OCc1cn(-c2ccccc2[N+](=O)[O-])nn1 | SR leukaemia cells | SRB |  | 10 µM, 48 h |  | growth percent | 45.1%
CC(=O)N[C@H](C(=O)N[C@@H](CCCNC(=N)N)C(=O)N[C@@H](CCCCN)C(=O)N[C@@H](CCCNC(=N)N)C(=O)N[C@H](C(=O)N[C@@]1(C)CCCC=CCCC[C@@](C)(C(=O)N[C@@H](CCC(N)=O)C(=O)N[C@@H](CCC(=O)O)C(=O)N[C@@H](CCCNC(=N)N)C(=O)N[C@@H](CCC(=O)O)C(=O)N[C@@H](CC(C)C)C(=O)N[C@H](C(=O)N[C@@H](CCC(=O)O)C(N)=O)C(C)C)NC(=O)[C@H](CC(C)C)NC(=O)[C@H](CCCNC(=N)N)NC(=O)[C@H](CCCNC(=N)N)NC1=O)[C@@H](C)O)C(C)C | A-431, H2030, H3255, H1975, SK-N-MC | CellTiter-Glo |  | concentration not given, 18 h |  | viability | inactive
COc1cc(CNC(=O)C[C@H](C)CCC=C(C)C)ccc1OCc1cn(-c2ccc(C#N)cc2)nn1 | SF-268 CNS cancer cells | SRB |  | 10 µM, 48 h |  | growth percent | 71.6%
C[C@@H]1O[C@@H](O[C@H]2[C@H](O[C@H]3CC[C@@]4(C)C(CC[C@]5(C)C4CC=C4C6CC(C)(C)CC[C@]6(C(=O)O[C@@H]6O[C@H](CO)[C@@H](O)[C@H](O)[C@H]6O)CC[C@]45C)[C@]3(C)CO)OC[C@H](O)[C@@H]2O)[C@H](O)[C@H](O[C@@H]2OC[C@@H](O)[C@H](O)[C@H]2O)[C@H]1O (stereo partly shown) | HepG2, palmitic acid-induced insulin resistance |  |  | 12.5 µM, 24 h |  | glucose consumption | 9.73 ± 0.39 mM
COc1ccc([C@@H]2CC(=O)c3c(O)cc(O[C@@H]4O[C@H](CO[C@@H]5O[C@@H](C)[C@H](O)[C@@H](O)[C@H]5O)[C@@H](O[C@H]5O[C@H](CO)[C@@H](O)[C@H](O)[C@H]5O)[C@H](O)[C@H]4O)cc3O2)cc1O | A549 | trypan blue exclusion |  | 100 µg/mL, 72 h |  | cell count | 17100 ± 334
Cc1cc(/N=N/c2ccc(/N=N/c3ccc(O)c(C(=O)O)c3)cc2)c(N)cc1N | primary mouse articular chondrocytes | western blot, measured: Phlpp2 | micromass culture | 25 µM, dosed days 4–6 and 4–9 |  | protein level | decreased
COc1ccc(CC(C)=C(c2ccc(Cl)cc2)c2ccc(OCCN3CCCC3)cc2)cc1 | NCI-60 tumour cell lines |  |  | 10 µM, mean over cell lines |  | growth inhibition | 24.1%
COc1cc(CNC(=O)C[C@H](C)CCC=C(C)C)ccc1OCc1cn(-c2ccc(Br)cc2)nn1 | SF-268 CNS cancer cells | SRB |  | 10 µM, 48 h |  | growth percent | 71.7%
C[n+]1cn(C2OC(COP(=O)(O)OP(=O)([O-])OP(=O)(O)OCC3OC(n4cnc5c(=O)[nH]c(N)nc54)C(O)C3O)C(O)C2O)c2nc(NCc3ccc(Cl)cc3)[nH]c(=O)c21 (stereo not shown) | HEK293 transfected with capped mRNA | luciferase expression |  |  | relative to: m7GpppG-capped mRNA | relative protein expression | 2.3 and 2.29
O=C(NCCCCc1ccccc1)n1c(=O)oc2cc(-c3ccc(F)cc3)ccc21 | SW-403 and RAW264.7 |  |  | 0.1 to 20 µM, 3 h |  | ceramide d18:1/16:0 level | increased
CC(=O)Nc1ccc(OC(=O)CCC(=O)[O][Pt-2]23([O]C(=O)CCC(=O)Oc4ccc(NC(C)=O)cc4)([NH2+][C@@H]4CCCC[C@H]4[NH2+]2)[O]C(=O)C(=O)[O]3)cc1 | 4T1 |  |  | 2 µM, 24 h | relative to: untreated | GSH content | 54.5%
COc1cc([C@@H]2OC[C@@H]3[C@H]2CO[C@H]3c2cc(OC)c(O)c(OC)c2)cc(OC)c1O | HepG2, palmitic acid-induced insulin resistance |  |  | 2.5 µM, 24 h |  | glucose consumption | 6.47 ± 0.17 mM
FC(F)(F)c1ccnc(-c2cc(C(F)(F)F)ccn2)c1.FC(F)(F)c1ccnc(-c2cc(C(F)(F)F)ccn2)c1.[Cl-].[Cl-].[Ru+2].c1csc(-c2ccc(-c3ccc(-c4ccc(-c5nc6c7cccnc7c7ncccc7c6[nH]5)s4)s3)s2)c1 | SK-MEL-28 |  |  | normoxia, with: green light 523 nm | relative to: visible light | phototherapeutic index decrease | 10 fold
COc1cc(CNC(=O)C[C@H](C)CCC=C(C)C)ccc1OCc1cn(-c2ccc([N+](=O)[O-])cc2)nn1 | OVCAR-3 ovarian cancer cells | SRB |  | 10 µM, 48 h |  | growth percent | 108%
CCC(=C(c1ccc(Cl)cc1)c1ccc(OCCN2CCCC2)cc1)c1ccccc1 | NCI-60 tumour cell lines |  |  | 10 µM, mean over cell lines |  | growth inhibition | 44%
CC(C)C[C@@H]1NC(=O)[C@H](CC(C)C)NC(=O)[C@H](Cc2ccccc2)NC(=O)[C@@H]2CSSC[C@@H](C(=O)O)NC(=O)[C@H](CSSC[C@H](N)C(=O)N3CCC[C@H]3C(=O)N2)NC(=O)CNC1=O | THP-1 |  |  | 200 µM, 18 h, Transwell, 10% serum, with: fibrinogen |  | cell migration | inhibited

Excerpt of the above:
Compound | cell line | assay | system | conditions | scale | quantity | result
COc1cc(CNC(=O)C[C@H](C)CCC=C(C)C)ccc1OCc1cn(-c2ccc(Br)cc2)nn1 | SF-268 CNS cancer cells | SRB |  | 10 µM, 48 h |  | growth percent | 71.7%
C[n+]1cn(C2OC(COP(=O)(O)OP(=O)([O-])OP(=O)(O)OCC3OC(n4cnc5c(=O)[nH]c(N)nc54)C(O)C3O)C(O)C2O)c2nc(NCc3ccc(Cl)cc3)[nH]c(=O)c21 (stereo not shown) | HEK293 transfected with capped mRNA | luciferase expression |  |  | relative to: m7GpppG-capped mRNA | relative protein expression | 2.3 and 2.29
O=C(NCCCCc1ccccc1)n1c(=O)oc2cc(-c3ccc(F)cc3)ccc21 | SW-403 and RAW264.7 |  |  | 0.1 to 20 µM, 3 h |  | ceramide d18:1/16:0 level | increased
CC(=O)Nc1ccc(OC(=O)CCC(=O)[O][Pt-2]23([O]C(=O)CCC(=O)Oc4ccc(NC(C)=O)cc4)([NH2+][C@@H]4CCCC[C@H]4[NH2+]2)[O]C(=O)C(=O)[O]3)cc1 | 4T1 |  |  | 2 µM, 24 h | relative to: untreated | GSH content | 54.5%
COc1cc([C@@H]2OC[C@@H]3[C@H]2CO[C@H]3c2cc(OC)c(O)c(OC)c2)cc(OC)c1O | HepG2, palmitic acid-induced insulin resistance |  |  | 2.5 µM, 24 h |  | glucose consumption | 6.47 ± 0.17 mM
FC(F)(F)c1ccnc(-c2cc(C(F)(F)F)ccn2)c1.FC(F)(F)c1ccnc(-c2cc(C(F)(F)F)ccn2)c1.[Cl-].[Cl-].[Ru+2].c1csc(-c2ccc(-c3ccc(-c4ccc(-c5nc6c7cccnc7c7ncccc7c6[nH]5)s4)s3)s2)c1 | SK-MEL-28 |  |  | normoxia, with: green light 523 nm | relative to: visible light | phototherapeutic index decrease | 10 fold
COc1cc(CNC(=O)C[C@H](C)CCC=C(C)C)ccc1OCc1cn(-c2ccc([N+](=O)[O-])cc2)nn1 | OVCAR-3 ovarian cancer cells | SRB |  | 10 µM, 48 h |  | growth percent | 108%
